Experimental data of several laboratories.
Lines come from different studies, so protocols differ. ± gives the spread as reported.
Rhomboid protease AarA: Rhomboid protease AarA (Providencia stuartii, UniProt P46116)
UniProt P46116, sequence (whole entry, looked up): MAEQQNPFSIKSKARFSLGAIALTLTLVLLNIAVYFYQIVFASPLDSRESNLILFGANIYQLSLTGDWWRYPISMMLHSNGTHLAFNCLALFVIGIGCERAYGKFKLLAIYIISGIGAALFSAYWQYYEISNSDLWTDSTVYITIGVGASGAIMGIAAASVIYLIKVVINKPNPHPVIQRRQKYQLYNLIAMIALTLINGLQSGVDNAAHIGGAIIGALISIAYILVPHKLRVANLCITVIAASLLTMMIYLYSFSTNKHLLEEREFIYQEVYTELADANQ
PPARG ligand-binding domain: Peroxisome proliferator-activated receptor gamma, ligand-binding domain (PPARG, Homo sapiens, UniProt P37231)
UniProt P37231, sequence (whole entry, looked up): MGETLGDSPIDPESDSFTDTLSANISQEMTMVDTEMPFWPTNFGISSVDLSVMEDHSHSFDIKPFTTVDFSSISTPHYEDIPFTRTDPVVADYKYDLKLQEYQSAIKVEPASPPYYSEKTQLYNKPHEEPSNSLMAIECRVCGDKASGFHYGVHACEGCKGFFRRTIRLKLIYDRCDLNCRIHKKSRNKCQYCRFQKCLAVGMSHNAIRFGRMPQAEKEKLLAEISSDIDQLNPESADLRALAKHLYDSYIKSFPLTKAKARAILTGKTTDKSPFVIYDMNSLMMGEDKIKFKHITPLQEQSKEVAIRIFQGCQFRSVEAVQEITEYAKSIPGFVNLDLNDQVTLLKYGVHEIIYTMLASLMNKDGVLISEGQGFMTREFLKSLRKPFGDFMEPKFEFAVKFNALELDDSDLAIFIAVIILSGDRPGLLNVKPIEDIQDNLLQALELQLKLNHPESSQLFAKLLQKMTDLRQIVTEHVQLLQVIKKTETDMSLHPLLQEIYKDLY
UniProt Q9P1W9, sequence (whole entry, looked up): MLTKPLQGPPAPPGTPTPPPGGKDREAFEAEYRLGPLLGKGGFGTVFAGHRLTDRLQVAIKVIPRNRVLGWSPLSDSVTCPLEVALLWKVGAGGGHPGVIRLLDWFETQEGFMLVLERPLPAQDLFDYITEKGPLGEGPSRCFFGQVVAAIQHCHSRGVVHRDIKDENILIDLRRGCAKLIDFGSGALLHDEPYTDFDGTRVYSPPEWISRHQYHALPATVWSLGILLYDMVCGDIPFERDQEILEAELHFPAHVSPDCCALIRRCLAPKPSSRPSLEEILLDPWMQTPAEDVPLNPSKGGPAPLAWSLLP
UniProt P0A988, sequence (whole entry, looked up): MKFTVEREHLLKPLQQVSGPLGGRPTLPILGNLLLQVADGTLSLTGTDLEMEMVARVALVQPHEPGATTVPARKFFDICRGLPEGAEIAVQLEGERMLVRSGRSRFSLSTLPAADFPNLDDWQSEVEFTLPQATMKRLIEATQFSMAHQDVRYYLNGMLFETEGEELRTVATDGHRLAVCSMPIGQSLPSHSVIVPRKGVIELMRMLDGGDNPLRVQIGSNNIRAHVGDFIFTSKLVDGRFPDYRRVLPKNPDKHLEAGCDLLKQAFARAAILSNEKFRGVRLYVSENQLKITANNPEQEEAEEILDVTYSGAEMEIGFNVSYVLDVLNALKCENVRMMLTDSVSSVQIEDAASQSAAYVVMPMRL
UniProt P07550, sequence (whole entry, unmodified, looked up): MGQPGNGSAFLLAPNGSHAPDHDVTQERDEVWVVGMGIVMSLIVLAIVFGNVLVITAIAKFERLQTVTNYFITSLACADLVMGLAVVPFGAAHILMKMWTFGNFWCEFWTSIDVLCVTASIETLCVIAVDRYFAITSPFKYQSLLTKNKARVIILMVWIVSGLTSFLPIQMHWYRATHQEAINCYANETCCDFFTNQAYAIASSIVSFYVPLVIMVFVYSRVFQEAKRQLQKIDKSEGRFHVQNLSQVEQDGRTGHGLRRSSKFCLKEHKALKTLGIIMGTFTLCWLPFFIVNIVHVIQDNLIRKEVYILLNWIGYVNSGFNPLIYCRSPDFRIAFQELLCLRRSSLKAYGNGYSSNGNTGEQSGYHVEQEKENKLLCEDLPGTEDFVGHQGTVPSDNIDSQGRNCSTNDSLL
UniProt P03952, sequence (whole entry, looked up): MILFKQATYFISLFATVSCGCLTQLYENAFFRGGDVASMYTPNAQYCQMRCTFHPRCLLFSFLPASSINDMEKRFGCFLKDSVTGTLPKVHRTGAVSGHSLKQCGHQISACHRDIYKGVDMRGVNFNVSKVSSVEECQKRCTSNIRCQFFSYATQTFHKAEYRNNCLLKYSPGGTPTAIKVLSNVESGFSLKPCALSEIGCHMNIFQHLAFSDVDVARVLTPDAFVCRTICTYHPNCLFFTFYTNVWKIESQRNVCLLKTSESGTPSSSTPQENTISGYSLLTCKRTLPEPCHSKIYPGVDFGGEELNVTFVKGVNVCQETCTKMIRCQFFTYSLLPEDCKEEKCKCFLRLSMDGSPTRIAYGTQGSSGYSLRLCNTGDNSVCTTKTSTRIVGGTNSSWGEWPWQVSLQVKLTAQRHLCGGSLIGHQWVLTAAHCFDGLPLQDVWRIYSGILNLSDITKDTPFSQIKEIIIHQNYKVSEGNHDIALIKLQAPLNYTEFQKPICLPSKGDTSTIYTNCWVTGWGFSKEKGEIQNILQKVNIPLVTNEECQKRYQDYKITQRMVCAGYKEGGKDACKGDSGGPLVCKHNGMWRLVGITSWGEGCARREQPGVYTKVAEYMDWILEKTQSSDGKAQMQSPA
UniProt P08172, sequence (whole entry, looked up): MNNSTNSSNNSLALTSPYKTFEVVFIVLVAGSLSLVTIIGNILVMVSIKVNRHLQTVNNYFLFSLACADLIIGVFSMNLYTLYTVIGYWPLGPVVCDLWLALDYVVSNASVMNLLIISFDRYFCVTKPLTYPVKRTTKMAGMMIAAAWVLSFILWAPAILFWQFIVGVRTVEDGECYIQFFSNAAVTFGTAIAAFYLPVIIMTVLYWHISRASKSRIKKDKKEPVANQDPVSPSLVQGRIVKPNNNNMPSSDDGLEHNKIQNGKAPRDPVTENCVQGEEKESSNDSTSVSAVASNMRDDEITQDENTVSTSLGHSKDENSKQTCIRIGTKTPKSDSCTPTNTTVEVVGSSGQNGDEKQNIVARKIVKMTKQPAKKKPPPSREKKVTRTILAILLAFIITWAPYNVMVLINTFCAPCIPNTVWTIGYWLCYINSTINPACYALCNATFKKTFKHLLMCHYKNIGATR

Compound	target	assay	test system	setting	IC50 [µM]
CC(C)Cn1cc(Cc2cccc(OC(C)(C)C(=O)O)c2)c2ccc(C(=O)N[C@@H](C)c3cccc(C(C)(C)C)c3)cc21	Peroxisome proliferator-activated receptor gamma (PPARG, Homo sapiens, UniProt P37231)	ligand displacement, TR-FRET	–	–	0.024
Cc1ccc(S(=O)(=O)N2N=Cc3ccsc3B2O)cc1	Plasma kallikrein (KLKB1, Homo sapiens, UniProt P03952)	enzyme activity, inhibitor	–	–	> 100
Cc1nn(-c2cccc(N)c2)c(=O)c2cnc(Nc3ccc(N4CCNCC4)cc3)nc12	Serine/threonine-protein kinase pim-2 (PIM2, Homo sapiens, UniProt Q9P1W9)	enzyme activity, inhibitor	–	–	> 10
CC(C)(C)OC(=O)NCCOc1ccccc1NC(=O)C(C(F)(F)F)C(F)(F)F	Rhomboid protease AarA	enzyme activity, inhibitor, fluorescence	–	–	5.7
Cc1c(Cc2cccc(OC(C)(C)C(=O)O)c2)c2ccc(C(=O)N[C@@H](C)c3ccc(C(F)(F)F)cc3)cc2n1C	PPARG ligand-binding domain	reporter gene, luciferase reporter	HEK293T, Gal4-PPARγ LBD	–	3.69
CCSc1nc2c(s1)c(=O)n(-c1ccccc1)c(=O)n2CC(=O)NCc1ccccc1	Beta sliding clamp (Escherichia coli, UniProt P0A988)	–	–	–	88.5 ± 2.6
Cc1c(Cc2cccc(O[C@H](C)C(=O)O)c2Cl)c2ccc(C(=O)N[C@@H](C)c3ccc(C(C)(C)C)cc3)cc2n1C	PPARG ligand-binding domain	reporter gene, luciferase reporter	HEK293T, Gal4-PPARγ LBD	–	4.21
O=C(NCc1ccc(N2CCOCC2)cc1)C(C(F)(F)F)C(F)(F)F	Rhomboid protease AarA	enzyme activity, inhibitor, fluorescence	–	–	25
Cc1c(Cc2ccc(OC(C)(C)C(=O)O)cc2)c2ccc(C(=O)N[C@@H](C)c3ccc(C4CC4)cc3)cc2n1C	PPARG ligand-binding domain	reporter gene, luciferase reporter	HEK293T, Gal4-PPARγ LBD	–	3.02
O=C(NCc1ccc(F)cc1)c1ccc(NC(=O)C(C(F)(F)F)C(F)(F)F)cc1	Rhomboid protease AarA	enzyme activity, inhibitor, fluorescence	–	–	12
Fc1ccc(Nc2nc(NC3CCCCC3)c3cc(Br)ccc3n2)cc1F	Beta-2 adrenergic receptor (ADRB2, Homo sapiens, UniProt P07550, I153L)	β-arrestin2 recruitment, antagonist, BRET	HEK293	mutant I153L, with: isoprenaline 1 µM	0.251
Cc1nn(-c2ccccc2)nc1CNC(=O)C(C(F)(F)F)C(F)(F)F	Rhomboid protease AarA	enzyme activity, inhibitor, fluorescence	–	–	3.3
O=C(CCNC(=O)CNC(=O)CC(c1ccccc1)(c1ccccc1)c1ccccc1)NC[C@@H]1CCCN(Cc2ccc3cc(F)ccc3c2)C1	Muscarinic acetylcholine receptor M2 (CHRM2, Homo sapiens, UniProt P08172)	ligand displacement, radioligand	–	cell membranes	10

Excerpt of the above:
Compound	target	assay	test system	setting	IC50 [µM]
Cc1c(Cc2ccc(OC(C)(C)C(=O)O)cc2)c2ccc(C(=O)N[C@@H](C)c3ccc(C4CC4)cc3)cc2n1C	PPARG ligand-binding domain	reporter gene, luciferase reporter	HEK293T, Gal4-PPARγ LBD	–	3.02
